{"data": "Measured values collected from several papers", "Genome polyprotein NS3 helicase domain": "Genome polyprotein, NS3 helicase domain (Hepatitis C virus genotype 1b, UniProt Q9WMX2)", "ADRA2B": "Alpha-2B adrenergic receptor (ADRA2B, Homo sapiens, UniProt P18089)", "note": "Lines come from different studies, so protocols differ. Several values in a cell are separate wells, animals, samples, runs or records. ± gives the spread as reported.", "UniProt P18089, sequence (whole entry, looked up)": "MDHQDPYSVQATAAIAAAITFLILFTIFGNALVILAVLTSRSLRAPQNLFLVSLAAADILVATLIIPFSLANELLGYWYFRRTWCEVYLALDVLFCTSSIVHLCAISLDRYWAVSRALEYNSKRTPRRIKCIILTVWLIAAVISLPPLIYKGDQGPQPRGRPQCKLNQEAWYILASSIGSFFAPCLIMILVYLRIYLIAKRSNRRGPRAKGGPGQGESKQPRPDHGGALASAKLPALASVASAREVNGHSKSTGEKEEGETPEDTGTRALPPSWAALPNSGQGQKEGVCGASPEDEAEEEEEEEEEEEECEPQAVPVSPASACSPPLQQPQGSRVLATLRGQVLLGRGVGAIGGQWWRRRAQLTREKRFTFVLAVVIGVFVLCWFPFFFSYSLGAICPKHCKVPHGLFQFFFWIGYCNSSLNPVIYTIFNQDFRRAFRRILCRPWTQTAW", "UniProt P06493, sequence (whole entry, looked up)": "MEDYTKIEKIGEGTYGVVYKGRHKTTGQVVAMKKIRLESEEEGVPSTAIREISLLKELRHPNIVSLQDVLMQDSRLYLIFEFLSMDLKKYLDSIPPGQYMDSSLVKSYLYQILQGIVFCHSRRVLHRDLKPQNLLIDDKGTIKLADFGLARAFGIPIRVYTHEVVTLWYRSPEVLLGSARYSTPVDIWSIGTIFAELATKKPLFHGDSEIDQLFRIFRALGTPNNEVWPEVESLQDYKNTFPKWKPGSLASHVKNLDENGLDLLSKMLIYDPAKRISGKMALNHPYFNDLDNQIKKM", "UniProt P14867, sequence (whole entry, looked up)": "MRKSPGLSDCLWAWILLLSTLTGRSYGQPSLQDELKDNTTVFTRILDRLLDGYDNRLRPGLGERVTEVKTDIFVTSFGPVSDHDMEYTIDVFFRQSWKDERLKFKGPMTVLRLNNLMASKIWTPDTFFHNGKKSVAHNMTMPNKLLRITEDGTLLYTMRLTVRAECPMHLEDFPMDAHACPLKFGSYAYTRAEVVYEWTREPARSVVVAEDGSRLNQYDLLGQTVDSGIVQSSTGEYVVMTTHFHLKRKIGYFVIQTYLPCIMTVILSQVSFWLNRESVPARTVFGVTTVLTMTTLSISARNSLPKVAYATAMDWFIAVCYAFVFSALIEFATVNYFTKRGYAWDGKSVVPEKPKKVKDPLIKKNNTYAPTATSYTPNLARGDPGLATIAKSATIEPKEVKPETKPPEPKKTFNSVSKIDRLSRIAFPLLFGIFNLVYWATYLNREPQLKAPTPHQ", "UniProt P05067, sequence (whole entry, looked up)": "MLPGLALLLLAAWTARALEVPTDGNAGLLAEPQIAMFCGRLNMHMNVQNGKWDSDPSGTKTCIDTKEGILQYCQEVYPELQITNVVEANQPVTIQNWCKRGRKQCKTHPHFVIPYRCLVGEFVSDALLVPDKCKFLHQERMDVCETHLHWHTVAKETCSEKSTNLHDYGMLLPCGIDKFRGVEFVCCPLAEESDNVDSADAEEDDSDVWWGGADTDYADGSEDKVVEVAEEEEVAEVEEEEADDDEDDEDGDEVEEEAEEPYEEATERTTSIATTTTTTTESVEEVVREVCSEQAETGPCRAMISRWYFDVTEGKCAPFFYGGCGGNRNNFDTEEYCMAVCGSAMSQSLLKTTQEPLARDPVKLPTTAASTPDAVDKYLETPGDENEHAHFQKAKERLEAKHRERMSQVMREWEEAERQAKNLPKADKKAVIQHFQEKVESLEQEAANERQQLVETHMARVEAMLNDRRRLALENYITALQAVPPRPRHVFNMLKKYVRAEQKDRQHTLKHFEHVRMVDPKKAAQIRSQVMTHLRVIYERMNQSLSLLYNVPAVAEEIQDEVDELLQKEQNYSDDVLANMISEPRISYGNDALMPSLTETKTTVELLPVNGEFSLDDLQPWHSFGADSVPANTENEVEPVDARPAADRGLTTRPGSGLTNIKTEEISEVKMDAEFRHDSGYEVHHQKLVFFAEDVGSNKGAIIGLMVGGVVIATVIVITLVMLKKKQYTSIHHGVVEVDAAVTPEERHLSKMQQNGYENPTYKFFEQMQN"}
{"SMILES": "CC(=O)NC[C@H]1[C@H](O)[C@H](O)[C@@H]2[C@H](O)C[C@@H](CO)N21", "target": "Spodoptera litura β-N-acetylglucosaminidase", "test system": "crude enzyme", "setting": "0.00627 µM, run 2, added: p-nitrophenyl GlcNAc", "quantity": "inhibition", "value": "33.9%"}
{"SMILES": "C#Cc1n[nH]c2c(-c3cn([C@@H](C)c4ccccn4)c(=O)[nH]c3=O)cc(F)cc12", "target": "Phosphatidylinositol 4,5-bisphosphate 3-kinase catalytic subunit beta isoform, with p85 alpha (PIK3CB, Homo sapiens, UniProt P42338)", "test": "kinase activity, inhibitor", "setting": "100 nM", "quantity": "inhibition", "value": "16%"}
{"SMILES": "CN(CCN1CCC(OC(=O)Nc2ccccc2-c2ccccc2)CC1)C(=O)c1ccc(CN2CCC(C(N)=O)CC2)cc1", "target": "phenylethanolamine N-methyltransferase", "test": "enzyme activity", "setting": "1 µM", "quantity": "inhibition", "value": "5%"}
{"SMILES": "NC(N)=NOCC[C@H](N)C(=O)O.O=S(=O)(O)O", "target": "Genome polyprotein NS3 helicase domain", "test": "DNA binding, inhibitor", "test system": "hepatitis C virus", "setting": "100 µM, added: Cy5-dT15 DNA", "quantity": "inhibition", "value": "2%"}
{"SMILES": "CN1CCN(c2cc(-c3ccncc3)c(-c3ccc4ccccc4c3)nn2)CC1", "target": "Sphingosine 1-phosphate receptor 5 (S1PR5, Homo sapiens, UniProt Q9H228)", "test": "antagonist, FLIPR", "setting": "10 µM", "quantity": "inhibition", "value": "-4.6%"}
{"SMILES": "CN1CCCC1c1cccnc1.O=C(O)C(O)C(O)C(=O)O (single isomer, unassigned; (-))", "target": "Genome polyprotein NS3 helicase domain", "test": "DNA binding, inhibitor", "test system": "hepatitis C virus", "setting": "100 µM, added: Cy5-dT15 DNA", "quantity": "inhibition", "value": "0%"}
{"SMILES": "CC(C)N1CCC[C@H]1CNC(=O)c1cn(C2CCCC2)c(=O)c2c1c1ccccc1n2C", "target": "phorbol ester receptor (mouse)", "test": "radioligand binding", "setting": "10 µM", "quantity": "inhibition", "value": "2%"}
{"SMILES": "O=C1NC(=O)C(c2ccccc2)(c2ccccc2)N1", "target": "GABA-A receptor alpha-1/beta-3, with gamma-2 subunit (GABRA1/GABRB3, Homo sapiens, UniProt P14867+P28472)", "test": "reversal, anesthetic-enhanced desensitization", "setting": "concentration not given, α1β3γ2 receptor", "scale": "higher is stronger", "quantity": "inhibition", "value": "-8%"}
{"SMILES": "COc1cc(Nc2ncc(F)c(Nc3ccc4c(n3)NC(=O)C(C)(C)O4)n2)cc(OC)c1OC", "target": "Serine/threonine-protein kinase PLK2 (PLK2, Homo sapiens, UniProt Q9NYY3)", "test": "KINOMEscan", "setting": "10 µM", "quantity": "inhibition", "value": "100%"}
{"SMILES": "Cl.Cl.c1ccc(CCCN2CCN(CCOC(c3ccccc3)c3ccccc3)CC2)cc1", "target": "Genome polyprotein NS3 helicase domain", "test": "DNA binding, inhibitor", "test system": "hepatitis C virus", "setting": "100 µM, added: Cy5-dT15 DNA", "quantity": "inhibition", "value": "0%"}
{"SMILES": "C[C@H](C(=O)N[C@H]1COc2ccccc2[C@@H]1S(C)(=O)=O)c1ccc(F)cc1", "target": "steroid 5alpha-reductase (rat)", "test": "Eurofins selectivity panel", "setting": "10 µM", "quantity": "inhibition", "value": "7%"}
{"SMILES": "Cn1cccc1-c1cccnc1", "target": "Alpha-1A adrenergic receptor (ADRA1A, Homo sapiens, UniProt P35348)", "test": "binding", "setting": "50 µM", "quantity": "inhibition", "value": "17%"}
{"SMILES": "FC(F)(F)c1cccc(Nc2nc(NCCOc3ccccc3)nc3[nH]cnc23)c1", "target": "Cyclin-dependent kinase 1, with cyclin B (CDK1, Homo sapiens, UniProt P06493)", "test": "enzyme activity, inhibitor, Thermo Fisher kinase screening", "setting": "5 µM", "quantity": "inhibition", "value": "10% and 2%"}
{"SMILES": "O=C(Cc1c[nH]c2cc(Cl)ccc12)N1CCC(n2ccnc2)CC1", "target": "Trypanothione synthetase (Leishmania infantum, UniProt A4I2Z3)", "test": "enzyme activity", "setting": "25 µM", "quantity": "inhibition", "value": "10.4 ± 8.9%"}
{"SMILES": "Cl.OCc1c[nH]cn1", "target": "Genome polyprotein NS3 helicase domain", "test": "DNA binding, inhibitor", "test system": "hepatitis C virus", "setting": "100 µM, added: Cy5-dT15 DNA", "quantity": "inhibition", "value": "0%"}
{"SMILES": "C[C@H]1CN(c2n[nH]c3nc(N[C@H]4CC[C@H](NS(=O)(=O)CCC(F)(F)F)CC4)ncc23)CCO1", "target": "Death-associated protein kinase 3 (DAPK3, Homo sapiens, UniProt O43293)", "test": "inhibitor, Kinobeads competition profiling", "setting": "0.8 µM", "scale": "baseline: vehicle", "quantity": "relative abundance", "value": 1.07}
{"SMILES": "CC[C@H](C)[C@H](NC(=O)[C@@H](NC(=O)[C@H](N)Cc1ccccc1)C(C)C)C(=O)N[C@@H](C)C(N)=O", "target": "Amyloid-beta precursor protein (APP, Homo sapiens, UniProt P05067)", "test": "amyloid-beta aggregation, thioflavin T fluorescence", "setting": "1.0 µM, 168 h, added: 2 µM amyloid-beta", "quantity": "inhibition", "value": "53.5%"}
{"SMILES": "COc1ccc(N2C(=O)N(c3c(C)cccc3Cl)Cc3cnc(Nc4ccc(C5CCN(C)CC5)cc4OC)nc32)nc1", "target": "Inhibitor of nuclear factor kappa-B kinase subunit beta (IKBKB, Homo sapiens, UniProt O14920)", "test": "kinase activity, inhibitor", "setting": "0.5 µM, kinase IKK-BETA", "quantity": "inhibition", "value": "3.68%"}
{"SMILES": "C[N+](C)(C)CCCCCCCCCC[N+](C)(C)C.[Br-].[Br-]", "target": "Genome polyprotein NS3 helicase domain", "test": "DNA binding, inhibitor", "test system": "hepatitis C virus", "setting": "100 µM, added: Cy5-dT15 DNA", "quantity": "inhibition", "value": "2%"}
{"SMILES": "O=C(N1CCC2(CC1)C[C@@H](CN1CCCCS1(=O)=O)CCO2)C1(c2ccccc2)CCCC1", "target": "Interferon-induced helicase C domain-containing protein 1 (IFIH1, Homo sapiens, UniProt Q9BYX4)", "test": "ATPase activity", "setting": "50 µM", "quantity": "inhibition", "value": "0%"}
{"SMILES": "O=C(N[C@H](CO)[C@H](O)c1ccc([N+](=O)[O-])cc1)C(Cl)Cl", "target": "Gag polyprotein, nucleocapsid protein p7 (gag, Human immunodeficiency virus type 1 group M subtype B, UniProt P04591)", "test": "NCp7-RNA binding, AlphaScreen", "test system": "HIV-1", "setting": "45 µM", "quantity": "inhibition", "value": "> 50%"}
{"SMILES": "Br.CCCN1CCc2cc(O)cc3c2[C@H]1Cc1ccc(O)c(O)c1-3", "target": "Genome polyprotein NS3 helicase domain", "test": "DNA binding, inhibitor", "test system": "hepatitis C virus", "setting": "100 µM, added: Cy5-dT15 DNA", "quantity": "inhibition", "value": "1%"}
{"SMILES": "O=C(Nc1cccnn1)N1CCC(=Cc2cccc(Oc3ccc(C(F)(F)F)cn3)c2)CC1", "target": "ADRA2B", "test": "binding", "setting": "50 µM, added: [3H]rauwolscine", "quantity": "inhibition", "value": "47%"}
{"SMILES": "Cl.NC1C=CC=C(C(=O)O)C1 (centres unmarked)", "target": "Genome polyprotein NS3 helicase domain", "test": "DNA binding, inhibitor", "test system": "hepatitis C virus", "setting": "100 µM, added: Cy5-dT15 DNA", "quantity": "inhibition", "value": "0%"}
{"SMILES": "CN(C(=O)n1cnc(-c2ccc[n+]([O-])c2)c1)C1CCCCC1", "target": "GABA transporter, rat", "test": "binding", "setting": "50 µM, added: [3H]GABA", "quantity": "inhibition", "value": "7%"}
{"SMILES": "COC(=O)c1ccc(C(=O)OC)c(NC(=O)CN2CCN(C(=O)COc3c(C)cccc3C)CC2)c1", "target": "uncharacterized protein (Erigeron canadensis, UniProt A0A8M0FGR5)", "test": "enzyme activity", "setting": "100 mg/L", "quantity": "inhibition", "value": "> 30%"}
{"SMILES": "O=C(Nc1cnccc1Cl)N1CCN(Cc2ccc3c(c2)OC(F)(F)O3)CC1", "target": "ADRA2B", "test": "binding", "setting": "50 µM, added: [3H]rauwolscine", "quantity": "inhibition", "value": "46%"}
{"SMILES": "CC(O)(CS(=O)(=O)c1ccc(F)cc1)C(=O)Nc1ccc(C#N)c(C(F)(F)F)c1 (centres unmarked)", "target": "Genome polyprotein NS3 helicase domain", "test": "DNA binding, inhibitor", "test system": "hepatitis C virus", "setting": "100 µM, added: Cy5-dT15 DNA", "quantity": "inhibition", "value": "0%"}
{"SMILES": "O=c1ccc2ccccc2o1", "target": "L-type calcium channel (dihydropyridine site)", "test": "radioligand binding", "setting": "10 µM", "quantity": "inhibition", "value": "4.37%"}
{"note": "Some of these lines once more:"}
{"SMILES": "COc1cc(Nc2ncc(F)c(Nc3ccc4c(n3)NC(=O)C(C)(C)O4)n2)cc(OC)c1OC", "target": "Serine/threonine-protein kinase PLK2 (PLK2, Homo sapiens, UniProt Q9NYY3)", "test": "KINOMEscan", "setting": "10 µM", "quantity": "inhibition", "value": "100%"}
{"SMILES": "Cl.Cl.c1ccc(CCCN2CCN(CCOC(c3ccccc3)c3ccccc3)CC2)cc1", "target": "Genome polyprotein NS3 helicase domain", "test": "DNA binding, inhibitor", "test system": "hepatitis C virus", "setting": "100 µM, added: Cy5-dT15 DNA", "quantity": "inhibition", "value": "0%"}
